Results of several laboratories.
Protocols differ between the studies behind these lines.

COc1c(NC(=O)c2ccc(NC(=O)[C@H](Cc3c[nH]nn3)NC(=O)c3ccc(NC(=O)/C(C)=C/c4ccc(O)cc4)cc3)cc2)ccc(C(=O)Nc2ccc(C(=O)O)cc2)c1O gave an MIC of 0.5 µg/mL (Bacillus subtilis; broth microdilution; DSM 10).
The MIC of CC1(C)C(NC(=O)C(=NOCC(=O)N2CC3CCCC3C2C(=O)O)c2csc(N)n2)C(=O)N1OS(=O)(=O)O (stereo not drawn) is reported as 0.125 µg/mL (Proteus mirabilis; agar dilution; ATCC 49565, susceptible).
COc1cc(C(=O)O)ccc1NC(=O)c1ccc(NC(=O)c2ccc(NC(=O)[C@H](Cc3c[nH]nn3)NC(=O)c3ccc(NC(=O)/C(C)=C/c4ccc(O)cc4)cc3)cc2)cc1O has an MIC of 1 µg/mL (Bacillus subtilis; broth microdilution; DSM 10).
With Cc1c(CN(C)C(=O)/C=C/c2cnc3c(c2)CC(N)C(=O)N3)oc2ccccc12 (stereo not drawn) the MIC was 4 µg/mL (Escherichia coli; broth microdilution; AR-0495).
The MIC of C[C@@H]1C(=O)O[C@@H](C)/C=C/C=C\[C@@H](C)[C@@H]2C=C[C@@H]3C[C@@]4(C)O[C@H]4[C@@H](C)[C@H]3[C@@H]2C(=O)C(Cl)(Cl)C1=O is reported as 0.025 µg/mL (Staphylococcus aureus; MRSA clinical isolate; resistant: OXA,CLI,ERY).
CCC(=O)c1ccc(Oc2ccc(Cl)cc2Cl)c(O)c1 gave an MIC of 50 to 100 µg/mL (Mycobacterium tuberculosis; H37Rv).
For C=CCO/N=C(\C(=O)N[C@@H]1C(=O)N(OS(=O)(=O)O)C1(C)C)c1nsc(N)n1, the MIC was 0.06 µg/mL (Proteus mirabilis; agar dilution; ATCC 49565, susceptible).
CC[C@H]1OC(=O)[C@H](C)[C@@H](OC(=O)c2ccc(N)cc2)[C@H](C)[C@@H](O[C@@H]2O[C@H](C)C[C@H](N(C)C)[C@H]2O)[C@](C)(OC)C[C@@H](C)C(=O)[C@H](C)[C@@H](O)[C@]1(C)O gave an MIC of 128 µg/mL (Bacillus subtilis; microbial growth; DSM402).
The MIC of C=C(NC(=O)c1csc(-c2nc3c(cc2O)-c2nc(cs2)C(=O)NC(C(C)O)C(=O)NC(=C(C)OC)c2nc(cs2)C(=O)NC2c4nc(cs4)C(=O)NC(COC(=O)c4c5c6c(cccc6n4O)COC(=O)C(OC4CC(C)(O)C(N(C)C)C(C)O4)C2OC5)c2nc-3cs2)n1)C(N)=O (stereo not drawn) is reported as 0.0039 µg/mL (Staphylococcus epidermidis; MRSE-8, methicillin-resistant).
CN[C@H](CC(C)C)C(=O)N[C@H]1C(=O)N[C@@H](CC(N)=O)C(=O)N[C@H]2C(=O)N[C@H]3C(=O)N[C@H](C(=O)N[C@H](C(=O)O)c4cc(O)cc(O)c4-c4cc3ccc4O)[C@H](O)c3ccc(c(Cl)c3)Oc3cc2cc(c3O[C@@H]2O[C@H](CO)[C@@H](O)[C@H](O)[C@H]2O[C@H]2C[C@](C)(N)[C@H](O)[C@H](C)O2)Oc2ccc(cc2Cl)[C@H]1O has an MIC of 43.3 µM (Gram-negative bacteria; seven strains).
For CC1C=CC=CC(C)C2C=CC3CC(C)(O)C(Cl)C(C)C3C2C(=O)C(Cl)(Cl)C(=O)C(C)C(=O)O1 (stereo not drawn), the MIC was 0.025 µg/mL (Staphylococcus aureus; MSSA clinical isolate; resistant: CIP,DAP,ERY,MXF).
For C#CCO/N=C(\C(=O)N[C@@H]1C(=O)N(OS(=O)(=O)O)C1(C)C)c1nsc(N)n1, the MIC was 2 µg/mL (Proteus mirabilis; agar dilution; ATCC 49565, susceptible).
The MIC of COC1C=COC2(C)Oc3c(C)c(O)c4c(c3C2=O)C2=NC3(CCN(CC(C)C)CC3)NC2=C(NC(=O)C(C)=CC=CC(C)C(O)C(C)C(O)C(C)C(OC(=O)Nc2cscn2)C1C)C4=O (stereo not drawn) is reported as 46.6 µg/mL (Mycobacteroides abscessus; ATCC 19977; single-strain MIC).
For Oc1cc(Cl)ccc1Oc1ccc(CNc2ccccc2)cc1Cl, the MIC was 50 µg/mL (Mycobacterium tuberculosis; H37Rv).
The MIC of O=CCNCCOn1c(=O)n(OCCNCCO)c(=O)n(OCCNCCOn2c(=O)n(OCCNCCO)c(=O)n(OCCNCCO)c2=O)c1=O is reported as 32 µg/mL (Candida tropicalis; microbial growth, broth dilution).
CC1(C)C(NC(=O)C(=NOC2(C(=O)O)CC2)c2csc(N)n2)C(=O)N1OS(=O)(=O)O (stereo not drawn) has an MIC of no more than 0.03 µg/mL (Proteus mirabilis; agar dilution; ATCC 49565, susceptible).
For CC[C@H]1OC(=O)[C@H](C)[C@@H](OC(=O)Cc2ccc(Cl)cc2)[C@H](C)[C@@H](O[C@@H]2O[C@H](C)C[C@H](N(C)C)[C@H]2O)[C@](C)(OC)C[C@@H](C)C(=O)[C@H](C)[C@@H](O)[C@]1(C)O, the MIC was 8 µg/mL (Bacillus subtilis; microbial growth; DSM402).
With C=C(NC(=O)c1csc(-c2cccnc2)n1)C(=O)NC(=C)C(=O)OC the MIC was greater than 20 µM (Enterococcus hirae; microbial growth; ATCC10541).
CC[C@H]1OC(=O)[C@H](C)[C@@H](OC(=O)Cc2ccc(C(F)(F)F)cc2)[C@H](C)[C@@H](O[C@@H]2O[C@H](C)C[C@H](N(C)C)[C@H]2O)[C@](C)(OC)C[C@@H](C)C(=O)[C@H](C)[C@@H](O)[C@]1(C)O has an MIC of 2 µg/mL (Bacillus subtilis; microbial growth; DSM402).
The MIC of CC1(C)[C@H](NC(=O)/C(=N\OCC(=O)N2CCC(C(=O)O)CC2)c2csc(N)n2)C(=O)N1OS(=O)(=O)O is reported as 0.5 µg/mL (Proteus mirabilis; agar dilution; ATCC 49565, susceptible).
For COc1cc(C(=O)Nc2ccc(C(=O)O)c(O)c2OC)ccc1NC(=O)c1ccc(NC(=O)[C@H](Cc2c[nH]nn2)NC(=O)c2ccc(NC(=O)/C(C)=C/c3ccc(O)cc3)cc2)cc1, the MIC was 1 µg/mL (Bacillus subtilis; broth microdilution; DSM 10).
CC1(C)[C@H](NC(=O)/C(=N\OC2(C(=O)O)CC2)c2nsc(N)n2)C(=O)N1OS(=O)(=O)O gave an MIC of 1 µg/mL (Proteus mirabilis; agar dilution; ATCC 49565, susceptible).
For CC[C@H]1OC(=O)[C@H](C)[C@@H](O[C@H]2C[C@@](C)(OC)[C@@H](O)[C@H](C)O2)[C@H](C)[C@@H](O[C@@H]2O[C@H](C)C[C@H](N(C)C)[C@H]2O)[C@](C)(O)C[C@@H](C)C(=O)[C@H](C)[C@@H](O)[C@]1(C)O, the MIC was 0.5 µg/mL (Bacillus subtilis; microbial growth; DSM402).
C=CCO/N=C(\C(=O)N[C@@H]1C(=O)N(OS(=O)(=O)O)C1(C)C)c1csc(N)n1 gave an MIC of 0.125 µg/mL (Proteus mirabilis; agar dilution; ATCC 49565, susceptible).
The MIC of CCOc1c(NC(=O)c2ccc(NC(=O)[C@H](Cc3c[nH]nn3)NC(=O)c3ccc(NC(=O)/C(C)=C/c4ccc(O)cc4)cc3)cc2)ccc(C(=O)Nc2ccc(C(=O)O)c(O)c2OC)c1O is reported as 0.125 µg/mL (Bacillus subtilis; broth microdilution; DSM 10).
For CC1(C)[C@H](NC(=O)/C(=N\OC2(C(=O)O)CCCC2)c2csc(N)n2)C(=O)N1OS(=O)(=O)O, the MIC was 0.06 µg/mL (Proteus mirabilis; agar dilution; ATCC 49565, susceptible).
CCCCCCC#Cc1cncc(-c2nnc(SCc3cc([N+](=O)[O-])cc([N+](=O)[O-])c3)n2C)c1 has an MIC of greater than 64 µg/mL (ESKAPE panel pathogens).

Excerpt of the above:
The MIC of O=CCNCCOn1c(=O)n(OCCNCCO)c(=O)n(OCCNCCOn2c(=O)n(OCCNCCO)c(=O)n(OCCNCCO)c2=O)c1=O is reported as 32 µg/mL (Candida tropicalis; microbial growth, broth dilution).
CC1(C)C(NC(=O)C(=NOC2(C(=O)O)CC2)c2csc(N)n2)C(=O)N1OS(=O)(=O)O (stereo not drawn) has an MIC of no more than 0.03 µg/mL (Proteus mirabilis; agar dilution; ATCC 49565, susceptible).
